Published values of several laboratories.
Lines come from different studies, so protocols differ.

COC1CN([C@H]2CC[C@H]([C@@]3(C)Oc4c(Cl)cc(C(=O)NCc5c(SC)cc(C)[nH]c5=O)c(C)c4O3)CC2)C1 — log2 fold change (RNA-seq, measured: CAMSAP3 mouse homolog; mouse, HT-1376 xenograft, whole blood; dose not given; relative to: vehicle): 2.93
Cc1ncsc1-c1ccc(C(C)NC(=O)C2CC(O)CN2C(=O)C(NC(=O)CCCCCCCCCCN2CCCC(Nc3ncc(Cl)c(Nc4ccccc4S(=O)(=O)C(C)C)n3)C2)C(C)(C)C)cc1 (centres unmarked) — log2 fold change (22Rv1; RNA-seq, measured: TUBD1 mRNA; concentration not given; relative to: DMSO): -1.65
C=CC(=O)Nc1cccc(Cn2ncc3cnc(Nc4cnn(CCOC)c4)nc32)c1 — percent of control (CDKL5 human; binding, KINOMEscan; 100 nM; lower = stronger binding): 100%
CNS(=O)(=O)Nc1nccc(Cc2c(C)c3ccc(Oc4ncccc4F)cc3oc2=O)c1F — IC50 (NCI-H2087; cell viability; 7 days): 1.15 nM
Cn1ncc2cc(-c3cncc(Cl)c3N3CCC4(CCNC4=O)CC3)ccc21 — log2 fold change (LS174T; gene expression, microarray, measured: GZMB mRNA; concentration not given, 4 h; relative to: untreated cells): -1.74
Nc1ncc(-c2cc(-c3cnn(CC(F)(F)F)c3)ncc2F)nc1C(=O)NC1CNCC(F)C1 (centres unmarked) — remaining binding (ASK2; KINOMEscan; 1 µM; relative to: DMSO control): 82%
CN1CCCNC(=O)c2cccc(c2)C(=O)NCCCN(C)CCCNc2cccc3c2C(=O)c2cccc(c2C3=O)NCCC1 — log2 fold change (SAS; RNA-Seq, measured: TPP2 mRNA; 1 µM, 6 h; relative to: untreated cells): -0.662
CCN(C(=O)c1cc(F)ccc1Oc1nncnc1N1CCC2(C1)CN([C@H](CCCN(C)CCOC)C(C)C)C2)C(C)C — GI50 (L-363; cell growth or viability; 72 h): > 10000 nM

A few entries again:
COC1CN([C@H]2CC[C@H]([C@@]3(C)Oc4c(Cl)cc(C(=O)NCc5c(SC)cc(C)[nH]c5=O)c(C)c4O3)CC2)C1 — log2 fold change (RNA-seq, measured: CAMSAP3 mouse homolog; mouse, HT-1376 xenograft, whole blood; dose not given; relative to: vehicle): 2.93
